Measured values collected from several papers.
Each numbered part is a random draw from the data of one study; scales do not carry over between parts.

Sample 1 — method: RNA Bind-n-Seq; molecule type: RNA; medium: in vitro; tested at: 365 nM; reference: no-protein control; reading: higher = stronger binding; quantity: RBNS enrichment (R)
Target: RNA binding protein fox-1 homolog 2, RRM domain, GST-SBP tag (RBFOX2, Homo sapiens, UniProt O43251-10, residues 100-194)
Setting: natural RNA segment, single round, ends assumed
Constant ends, left off below: GGGAGUUCUACAGUCCGACGAUC … UGGAAUUCUCGGGUGCCAA
Construct (chain): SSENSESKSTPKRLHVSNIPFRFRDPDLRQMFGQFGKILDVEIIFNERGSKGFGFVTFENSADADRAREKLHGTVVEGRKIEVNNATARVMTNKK
UUGAAAAGAGAUUUGAAGAAACUGACAACUUCAAAAACAAAUGAGAAGCCCAAGGAACUGUGAGCAAUUAAAAGCAAACCGCGACACCCUUUGUCUCCACCACACAUAGU: 0.334
GCCAUUGGCGGUUCUGCUGCUUCGCUGCAGGGAUAAGGUGGAGCUACCGAACAGCUGAUUCAUAUGCCAAGAAUUUGGAGUCUUCUUUCAAACCAGUGGGGGUUGGACAA: 0.409
GGAUCAUAAAUUCUUUCCCUAUAACAUUCCUUCUCUGCCUCUCUAUGGCCCACUUUGACCACUAACAACAUCAGAAUUAUCUACAUCAAUUUCAUUGAGCCAUUGGUGAA: 0.927
AGCCCUUUGAUGGGGUCUUAACUCAUAUCAGUCAUUUGGGCUUCUCUGAUCCUGAGGCUAAGAAAGGGGAAGAGACCCUCAGGAGGCAGCUUCCACUCCAGGGCUCUUGA: 0.589
ACAUGCCAAGAUUCUCAUGAGUUUUCUUACUUUGUCAUCCAUGUUCUUUUUCUAUUUGUAGGUCAAAGACAAGUGCCUUCUAUGGCAUGGGAAAGGGCUUUAUUCUUAUA: 0.435
GAUCUCUAAACCUUCUUACAUAGAAAGCAUCCCUAUAAUCUAUAGGGAGAGGCGGGGAAUAAAGUGCCUAUUCUGCCAGUGUCUGGGACUUCUUUAUGGACAGAAGGGGA: 0.559
AAGGAGACUUGAUAUUCAGAGAAUCAACAUGUUUUUUAAUGACUAACUGUAAAAGGCCCCUACACGUGACGCCAUCUGGACACCCACUCUGGCGGGGGUGGCACCACCCA: 0.365
AACUCUGAUCCCGAUGGAGGCUGCACGCCUCCCCCACCCCAUGAUAGCAUCUGUGUGUAUUAAUUCUGAAGAAUUAAAUGUUUAAAUUAGAGUUUAAAUGUUGACGGCGU: 0.354
GGGAGAAAGAGAAGGCAACUCCUCCUUACCCCCCACACUGGUAAUCUUUCCAACCAGCAUCCCAGACCUCGGACUCUUGAAGGGAAAAGAGUCUAACUCCCUCCUCCCUA: 0.33
GAAAACGAUUCUGUCAAGAUCCAAUUGGCUCUAGAUCUACAUUCUUCAAACAAAAUUGGCGUAACUGUUUCAUCUUUAAGUAGCAGUUUGCUGCCAUUUGUAUUCAGCUG: 0.21
GCGCUGGGCUCGCUCAUGUGGUCGCCCUGCUGGUUCUGGCCCUGGGACUCGGAGCACUGACCCCUGCGCUUGGAUUGCUAGACUCCUCUUCCUCCUGGACCCCAUCCUCU: 0.276
GUCUUCAUGGACUUUUGGGGUUUCUUAGUGUUGGAUUUUUGGGGUUUCUCAUUUACUUUUUACUCUUAAUACUAAUGCUUAUGUGUUUCACUGAGUAUCAAAACUGCCAA: 0.442

Sample 2 — method: protein binding microarray; molecule type: double-stranded DNA, one strand shown; medium: in vitro; tested at: not given; reference: not given; reading: higher = stronger binding; quantity: E-score
Target: Histone acetyltransferase KAT6A, both winged helices, GST fusion (KAT6A, Homo sapiens, UniProt Q92794, residues 1-181)
Setting: 8-mer, flanks averaged, mean of 2 arrays, mostly near background
Target sequence (chain): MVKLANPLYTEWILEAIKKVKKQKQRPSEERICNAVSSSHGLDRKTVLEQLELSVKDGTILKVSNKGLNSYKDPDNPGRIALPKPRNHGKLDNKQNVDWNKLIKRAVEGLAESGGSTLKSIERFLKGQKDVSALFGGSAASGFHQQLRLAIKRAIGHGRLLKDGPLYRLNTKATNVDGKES
AAGGGCGC: 0.12
GCCCCTGA: -0.208
AAGGGTTG: -0.145
CCAATGAA: -0.119
ATCTTTTG: 0.00639
AAGCAAGC: -0.0399
CCAGGTCA: -0.227
CGATCTAA: -0.155
GCGACGGA: 0.282
CCGACAAA: 0.0366
GCTCCCCA: -0.218
TAGAATCA: -0.21
GCTGCCGA: 0.155
AGGGTTGA: -0.192
AGCTAGGA: -0.135

Sample 3 — method: competition protein-binding microarray; molecule type: double-stranded DNA, one strand shown; medium: in vitro; tested at: 2 µM; added: Cbf1 competitor, 0.05 µM; reading: higher = stronger binding; quantity: fluorescence intensity; constant ends, left off below: … GTCTTGATTCGCTTGACGCTGCTG
Target: Phosphate system positive regulatory protein PHO4, full length, GST-tagged (PHO4, Saccharomyces cerevisiae, UniProt P07270, residues 1-312)
Setting: whole 60-bp probe, lowest competitor level
Construct (chain): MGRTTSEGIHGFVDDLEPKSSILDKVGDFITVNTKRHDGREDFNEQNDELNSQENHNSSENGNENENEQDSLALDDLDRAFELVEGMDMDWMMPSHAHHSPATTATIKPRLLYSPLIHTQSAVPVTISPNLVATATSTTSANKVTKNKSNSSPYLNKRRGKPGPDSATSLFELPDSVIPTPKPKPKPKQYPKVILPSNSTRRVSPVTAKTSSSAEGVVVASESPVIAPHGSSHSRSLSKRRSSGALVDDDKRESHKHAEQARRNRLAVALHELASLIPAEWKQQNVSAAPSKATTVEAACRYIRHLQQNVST
CGTCCTAGTGATTGGAGAGTGGGTGCCATGAGGAAG: 6790 a.u.
CATTCGGTTAATCAACACGTGGAAGTCCCAGGTTCT: 17100 a.u.
GTTTCGACTTGCCACAACGTGCTTTCGGTTTCTTGT: 11900 a.u.
TGATTATACTTTACCCACGCACATCAAACGCATACC: 9540 a.u.
AGCAATTCGGCCAACAACGTGCTTTCCTTCATCTCT: 12900 a.u.
CATACCCAACCTTGTGCGGTGGGTGAAGATATTTGT: 7270 a.u.
CGTCCTAGTGATTGTCACCCAACTTCCATGAGGAAG: 4100 a.u.
ATGGATATATATGGACACGGGACATTATAACAACTT: 7630 a.u.
CTTTCCCGATCTTGTAGTGTGGGTGTAGCACATTTG: 5890 a.u.
GTCTTGTCTCATTGTCACGGGACTTTCCCCACTTCA: 6820 a.u.
TCCGCATGGAAACGAAACGTGGGTATGACTTGGAAG: 14100 a.u.
CTTTCCCGATCTTGGGCCGTGGGTGTAGCACATTTG: 5610 a.u.
AAAGCGGTAATTTTTCACGTGTGTTCACATATCTAT: 14000 a.u.
ACCATCACAATTCGTCACGTGCAAATTAGTCCAGTC: 15300 a.u.
CGGCGGCAAGGTTGTGTCGTGATGGTCGTTGCATAG: 6240 a.u.
GCGCCGGGCGCTGGCCACGTGCAGGTAGGAGCGCGG: 17200 a.u.
CTTTCCCGATCTTGCCTGGTGGGTGTAGCACATTTG: 5170 a.u.

Sample 4 — method: RNA Bind-n-Seq; molecule type: RNA; medium: in vitro; tested at: 1 µM; setting: whole 134-nt RNA, ends assumed; added: 150 mM KCl; reference: input library; reading: higher = stronger binding; quantity: log2 enrichment
Target: Ras GTPase-activating protein-binding protein 1, C-terminal RGG region (G3BP1, Homo sapiens, UniProt Q13283)
UniProt Q13283, sequence (whole entry, looked up): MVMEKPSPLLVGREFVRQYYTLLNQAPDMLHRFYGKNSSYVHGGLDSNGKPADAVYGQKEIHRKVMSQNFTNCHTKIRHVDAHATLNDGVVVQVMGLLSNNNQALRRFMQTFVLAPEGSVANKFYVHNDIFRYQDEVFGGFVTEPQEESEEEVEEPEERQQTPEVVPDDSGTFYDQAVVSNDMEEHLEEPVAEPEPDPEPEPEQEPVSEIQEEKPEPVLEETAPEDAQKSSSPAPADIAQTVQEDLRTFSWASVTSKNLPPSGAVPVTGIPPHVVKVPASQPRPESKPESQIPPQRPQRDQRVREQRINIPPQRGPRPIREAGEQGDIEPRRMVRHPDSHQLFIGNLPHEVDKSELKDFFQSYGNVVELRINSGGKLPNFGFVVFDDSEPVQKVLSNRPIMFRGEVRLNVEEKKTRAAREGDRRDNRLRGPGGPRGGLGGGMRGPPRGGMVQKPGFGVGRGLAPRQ
Constant ends, left off below: GGGAGUUCUACAGUCCGACGAUC … UGGAAUUCUCGGGUGUCAAGG
AGUCCUGUGCUACACAUCGUAUGUACCGAAUCGGUUUGGUUUUUUUGGAAAAAAAGGAAAGUAUUAUGUUACGCCGUUCGGAUCUGCACU: -2.06
CACAGACAUCACGCACCCACACAGACACAGAGGGAAGGGGUUGGGAUGGGGACAGGGUGCACAGCAGGGCGGGGUAGGACCCCAGCCCCU: -0.485
CAAGUCCUGUGCUACACAUCGUAUGUACCGAAUCGGGGCCCGGCCCGGGGCCCGGAAAGUAUUAUGUUACGCCGUUCGGAUCUGCACUUC: -1.73
ACCAUGCAGGUGGGCAUCUUUGGGAAGUGGGGCAAGGGGGGGAUAGGGAGGGGGGUAACACUUUGGGAACAGGUGGUCCCAGGUCGUUGC: 3.06
UAACUUUAGAGGAGGAUCUGAUGGAUAUGGCAGUGGACGUGGAUUUGGGGAUGGCUAUAAUGGGUAUGGAGGAGGACCUGGAUGUGGCAA: -1.08
CACAGACAACACGCACCCACACAGACACAGAGGGAAGGGGUUGGGAUGGGGACAGGGUGCACAGCAAGGCGGGGUAGGACCCCAGCCCCU: -0.343
UGGGAGGUGGAUUUUGUUUAUUUUUUUAGCUCAUUUCCAGGGGUGGGAAUUUUUUUUUAAUAUGUGUCAUGAAUAAAGUUGGUUUUGAAA: 3.51
UGACCCUGGUGGCAUGCGGGGAGGAAGAGGUGGCCUCAUGGAUCGUGGUGGUCCCGGUGGAAUGUUCAGAGGUGGCCGUGGUGGAGACAG: 2.22
UAACUUUAGAGGAGGAUCUGAUGGAUAUGGCAGCGGACGUGGAUUUGGGGAUGGCUAUAAUGGGUAUGGAGGAGGACCUGGAGGUGGCAA: -1.05
CCUGUGCUACACAUCGUAUGUACCGAAUCGGGAAAAAAGGGGAAAAAAGGAAAAAAGGGGAAAGUAUUAUGUUACGCCGUUCGGAUCUGC: -1.51
CAAGUCCUGUGCUACACAUCGUAUGUACCGAAUCGGGUGGGUUUUUUUGGGUGGGAAAGUAUUAUGUUACGCCGUUCGGAUCUGCACUUC: 0.444

Sample 5 — method: aptamer microarray, sandwich; molecule type: DNA with 2'F-ANA; medium: in vitro; tested at: 200 nM; added: Cy3 exosite-II aptamer, 400 nM; reading: higher = stronger binding; quantity: mean fluorescence intensity; sequence: GGTTGGTGTGGTTGG
Target: Prothrombin, mature alpha-thrombin (F2, Homo sapiens, UniProt P00734)
Setting: whole 15-mer aptamer, many near background
2'F-ANA at 4 5 6 7 8 9 10 12 14: 47 a.u.
2'F-ANA at 4 10 11 12 13 15: 87.8 a.u.
2'F-ANA at 1 4 5 6 13 14 15: 46 a.u.
2'F-ANA at 1 3 5 8 12 13 15: 97 a.u.
2'F-ANA at 1 2 4 5 12 14: 43.1 a.u.
2'F-ANA at 2 4 5 6 9: 89.2 a.u.
2'F-ANA at 5 7 8 9 10: 51 a.u.
2'F-ANA at 4 5 7 8 9 11 13 14: 50.3 a.u.
2'F-ANA at 3 4 5 6 9 11 14 15: 58.1 a.u.
2'F-ANA at 1 2 3 5 8 9 13 14: 50.9 a.u.
2'F-ANA at 5 7 9 11 13 14: 46.4 a.u.
2'F-ANA at 2 8 10 11 14 15: 75.4 a.u.
2'F-ANA at 2 5 7 10 12 14 15: 48.9 a.u.
2'F-ANA at 2 6 7 12 15: 686 a.u.
2'F-ANA at 10 11 12 15: 186 a.u.

For quick reference, copied from above (sample 4):
AGUCCUGUGCUACACAUCGUAUGUACCGAAUCGGUUUGGUUUUUUUGGAAAAAAAGGAAAGUAUUAUGUUACGCCGUUCGGAUCUGCACU: -2.06
CACAGACAUCACGCACCCACACAGACACAGAGGGAAGGGGUUGGGAUGGGGACAGGGUGCACAGCAGGGCGGGGUAGGACCCCAGCCCCU: -0.485
CAAGUCCUGUGCUACACAUCGUAUGUACCGAAUCGGGGCCCGGCCCGGGGCCCGGAAAGUAUUAUGUUACGCCGUUCGGAUCUGCACUUC: -1.73
ACCAUGCAGGUGGGCAUCUUUGGGAAGUGGGGCAAGGGGGGGAUAGGGAGGGGGGUAACACUUUGGGAACAGGUGGUCCCAGGUCGUUGC: 3.06
UAACUUUAGAGGAGGAUCUGAUGGAUAUGGCAGUGGACGUGGAUUUGGGGAUGGCUAUAAUGGGUAUGGAGGAGGACCUGGAUGUGGCAA: -1.08
CACAGACAACACGCACCCACACAGACACAGAGGGAAGGGGUUGGGAUGGGGACAGGGUGCACAGCAAGGCGGGGUAGGACCCCAGCCCCU: -0.343
UGGGAGGUGGAUUUUGUUUAUUUUUUUAGCUCAUUUCCAGGGGUGGGAAUUUUUUUUUAAUAUGUGUCAUGAAUAAAGUUGGUUUUGAAA: 3.51
UGACCCUGGUGGCAUGCGGGGAGGAAGAGGUGGCCUCAUGGAUCGUGGUGGUCCCGGUGGAAUGUUCAGAGGUGGCCGUGGUGGAGACAG: 2.22
UAACUUUAGAGGAGGAUCUGAUGGAUAUGGCAGCGGACGUGGAUUUGGGGAUGGCUAUAAUGGGUAUGGAGGAGGACCUGGAGGUGGCAA: -1.05
CCUGUGCUACACAUCGUAUGUACCGAAUCGGGAAAAAAGGGGAAAAAAGGAAAAAAGGGGAAAGUAUUAUGUUACGCCGUUCGGAUCUGC: -1.51
CAAGUCCUGUGCUACACAUCGUAUGUACCGAAUCGGGUGGGUUUUUUUGGGUGGGAAAGUAUUAUGUUACGCCGUUCGGAUCUGCACUUC: 0.444
